# Experimental data pooled from the literature.
# Compare with care: the assays were run in different laboratories.
# Target: Serine/threonine-protein kinase pim-2 (PIM2, Homo sapiens, UniProt Q9P1W9)
# UniProt Q9P1W9, sequence (whole entry, looked up): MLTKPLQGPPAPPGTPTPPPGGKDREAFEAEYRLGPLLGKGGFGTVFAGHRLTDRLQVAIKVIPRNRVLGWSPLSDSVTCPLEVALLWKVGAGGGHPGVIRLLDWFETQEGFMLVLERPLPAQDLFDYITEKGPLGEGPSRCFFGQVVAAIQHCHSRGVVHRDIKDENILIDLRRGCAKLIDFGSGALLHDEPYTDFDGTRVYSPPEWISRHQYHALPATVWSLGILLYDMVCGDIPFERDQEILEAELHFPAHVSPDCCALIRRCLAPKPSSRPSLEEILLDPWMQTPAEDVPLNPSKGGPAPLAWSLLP
Structure (SMILES),test,setting,scale,endpoint,value
CCOC(=O)[C@@H]1Cc2c(cc([N+](=O)[O-])cc2[N+](=O)[O-])[C@H](O)[C@]12C(=O)Nc1ccc(Br)cc12,"binding, competition with immobilised ligand",0.1 µM,,remaining binding,52%
C[C@H](NCc1ccc(-c2ccc(C(F)(F)F)cc2)cc1)C(N)=O,"cell-free assay, competition with immobilised ligand",1 µM,,inhibition,6%
CN(/N=C/c1ccccc1C(=O)O)c1nc(-c2ccccc2Cl)cs1,"enzyme activity, inhibitor",1 µM,,inhibition,-15.2%
Nc1ccc(/C=C/C(=O)N2CCc3c(oc4c(-c5ccc(F)cc5)cc(-c5ccc(C(=O)N6CCC(F)(F)CC6)cn5)cc34)C2)cn1,"binding, competition with immobilised ligand",1 µM,,remaining binding,100%
N[C@H](C(=O)N1CCCC1)C1CCN(c2nccc3c(-c4ncc(Cl)cc4Cl)cccc23)CC1,"kinase activity, inhibitor","10 µM, with: ATP 1 mM",,inhibition,5.5%
CC(C)[C@H]1NC(=O)C[C@H]2/C=C/CCSSC[C@@H](NC1=O)C(=O)N[C@H](Cc1cccc3ccccc13)C(=O)NCC(=O)O2,"enzyme activity, inhibitor",10 µM,,inhibition,1.3%
CS(C)(=O)=Nc1ccc(-c2ccc(-c3nc4cc(O[C@@H]5CO[C@H]6[C@@H]5OC[C@H]6O)[nH]c4cc3F)cc2)cc1,"enzyme activity, inhibitor",10 µM,,inhibition,0%
O=C(O)c1ccccc1/C=N/Nc1nc(-c2ccccc2Cl)cs1,"enzyme activity, inhibitor",1 µM,,inhibition,-6.91%
O=C1NC(=O)c2c1c1cc(F)c[n+]3c1c1c2c2cc(O)ccc2[n]1[Ru-4]312([N]=C=S)[S+]3CC[S+]1CC[S+]2CC3 (stereo not drawn),enzyme activity,"100 nM, human enzyme, with: 10 µM ATP",reference: untreated,remaining activity,3%

# A few entries again:
Structure (SMILES),test,setting,scale,endpoint,value
CC(C)[C@H]1NC(=O)C[C@H]2/C=C/CCSSC[C@@H](NC1=O)C(=O)N[C@H](Cc1cccc3ccccc13)C(=O)NCC(=O)O2,"enzyme activity, inhibitor",10 µM,,inhibition,1.3%
